Experimental data gathered from unrelated publications.
Each line is one published result; not all experiments were run side by side. ± gives the spread as reported.

SMILES | assay | system | setting | scale | measurement | result
CSCC[C@H](NC(=O)CNC(=O)[C@H](CC(=O)O)NC(=O)[C@@H](NC(=O)[C@@H](NC(=O)[C@@H](NC(=O)CNC(=O)[C@H](CCC(=O)O)NC(=O)[C@H](CCSC)NC(=O)[C@H](CC(=O)O)NC(=O)[C@H](C)NC(=O)[C@H](C)NC(=O)[C@@H](NC(=O)[C@H](CO)NC(=O)[C@@H](N)CC(C)C)[C@@H](C)O)C(C)C)C(C)C)[C@@H](C)O)C(=O)N[C@@H](C)C(=O)N[C@@H](CO)C(=O)NCC(=O)N[C@@H](CC(C)C)C(=O)N[C@@H](CC(=O)O)C(=O)N[C@@H](CCCCN)C(=O)N[C@@H](CC(=O)O)C(=O)N[C@@H](Cc1ccc(O)cc1)C(=O)N[C@@H](CC(C)C)C(=O)N[C@@H](CCCCN)C(=O)N1CCC[C@H]1C(=O)N[C@@H](CC(=O)O)C(=O)N[C@@H](CC(=O)O)C(=O)O |  | CD-1 mouse, male, serum | intravenous, 480 mg/kg, 24 h |  | serum concentration | 103 to 149 ng/mL
CN(C)C(CNC(=O)Nc1cc(C(F)(F)F)ccc1N1CCOCC1)c1ccncc1 (centres unmarked) |  | mouse, serum | intraperitoneal, 360 mg/kg single dose |  | serum anion gap | 27 mmol/L
CC(C)[C@H](NC(=O)[C@H](Cc1c[nH]c2ccccc12)NC(=O)[C@H](Cc1ccccc1)NC(=O)[C@@H](NC(=O)[C@@H](NC(=O)[C@H](CCCCN)NC(=O)[C@@H](N)CCCCN)C(C)C)C(C)C)C(=O)N[C@@H](CCCCN)C(=O)N[C@@H](Cc1ccccc1)C(=O)N[C@@H](CCCCN)C(N)=O | ELISA, item: IgG2b | mouse, serum | iv, 500 µg/kg twice, 5 days |  | serum antibody level | 0.265 ± 0.024 OD490
CCCCCCCCCCCCCCCC(=O)OCC(CSC[C@H](N)C(=O)N[C@@H](CO)C(=O)N[C@@H](CCCCN)C(=O)N[C@@H](CCCCN)C(=O)N[C@@H](CCCCN)C(=O)N[C@@H](CCCCN)C(=O)NCCCCCC(=O)N[C@@H](CCCCN)C(=O)N[C@@H](CC(C)C)C(=O)N[C@H](C(=O)N[C@@H](Cc1ccccc1)C(=O)N[C@@H](Cc1ccccc1)C(=O)N[C@@H](Cc1ccc2ccccc2c1)C(=O)O)C(C)C)OC(=O)CCCCCCCCCCCCCCC (some centres unmarked) |  | C57BL/6J mouse | intraperitoneal, 15 mg/kg twice |  | serum AST | no effect
CC[C@H](C)[C@H](NC(=O)[C@H](CC(=O)O)NC(=O)[C@H](CO)NC(=O)[C@H](CCC(N)=O)NC(=O)[C@H](C)NC(=O)[C@H](CC(=O)O)NC(=O)[C@H](CCC(=O)O)NC(=O)[C@H](Cc1c[nH]cn1)NC(=O)[C@H](Cc1ccc(O)cc1)NC(=O)[C@H](C)NC(=O)[C@H](CC(=O)O)NC(=O)[C@H](CCC(=O)O)NC(=O)[C@H](Cc1c[nH]cn1)NC(=O)[C@H](Cc1ccc(O)cc1)NC(=O)[C@H](C)NC(=O)[C@H](CC(=O)O)NC(=O)[C@H](CCC(=O)O)NC(=O)[C@H](Cc1c[nH]cn1)NC(=O)[C@H](Cc1ccc(O)cc1)NC(=O)[C@H](C)NC(=O)[C@H](CC(=O)O)NC(=O)[C@H](CCC(=O)O)NC(=O)[C@H](Cc1c[nH]cn1)NC(=O)[C@H](Cc1ccc(O)cc1)NC(=O)[C@H](C)NC(=O)[C@H](CC(=O)O)NC(=O)[C@H](CCC(=O)O)NC(=O)[C@H](Cc1c[nH]cn1)NC(=O)[C@@H](N)Cc1ccc(O)cc1)C(=O)N[C@H](C(=O)N[C@@H](C)C(=O)N[C@@H](Cc1c[nH]cn1)C(=O)N[C@@H](CC(C)C)C(=O)N[C@@H](CC(C)C)C(=O)O)C(C)C |  | mouse, SN model | dose not given |  | serum creatinine | 0.58 ± 0.07 mg/dL
Cc1ccccc1CN1CCC(O)(c2ccc(Cl)c(C(F)(F)F)c2)CC1 | LC-MS | BALB/c mouse, serum | oral, 50 mg/kg |  | serum concentration | < 100 ng/mL
N=C(N)NCCC[C@H](NC(=O)[C@H](CCCNC(=N)N)NC(=O)[C@H](Cc1ccccc1)NC(=O)[C@H](Cc1c[nH]c2ccccc12)NC(=O)[C@H](Cc1c[nH]c2ccccc12)NC(=O)[C@H](Cc1ccccc1)NC(=O)[C@H](CCCNC(=N)N)NC(=O)[C@H](CCCNC(=N)N)NC(=O)[C@@H](N)Cc1ccccc1)C(=O)N[C@@H](Cc1ccccc1)C(N)=O |  | ICR mouse | intraperitoneal, 5, 10, 20 mg/kg daily, 3 days | reference: saline | serum ALP, ALT, BUN, creatinine, bilirubin | no effect
CC(=O)N[C@H](C(=O)N[C@@H](CCCC(=O)OC(C)(C)C)C(=O)N[C@@H](CCC1CCCCC1)C(=O)N[C@@H](CC(=O)O)C(=O)COC(=O)c1c(C)cccc1C)C(C)(C)C |  | C57BL/6N mouse | dose not given |  | serum AST and ALT | increased

Some of these lines once more:
SMILES | assay | system | setting | scale | measurement | result
CC[C@H](C)[C@H](NC(=O)[C@H](CC(=O)O)NC(=O)[C@H](CO)NC(=O)[C@H](CCC(N)=O)NC(=O)[C@H](C)NC(=O)[C@H](CC(=O)O)NC(=O)[C@H](CCC(=O)O)NC(=O)[C@H](Cc1c[nH]cn1)NC(=O)[C@H](Cc1ccc(O)cc1)NC(=O)[C@H](C)NC(=O)[C@H](CC(=O)O)NC(=O)[C@H](CCC(=O)O)NC(=O)[C@H](Cc1c[nH]cn1)NC(=O)[C@H](Cc1ccc(O)cc1)NC(=O)[C@H](C)NC(=O)[C@H](CC(=O)O)NC(=O)[C@H](CCC(=O)O)NC(=O)[C@H](Cc1c[nH]cn1)NC(=O)[C@H](Cc1ccc(O)cc1)NC(=O)[C@H](C)NC(=O)[C@H](CC(=O)O)NC(=O)[C@H](CCC(=O)O)NC(=O)[C@H](Cc1c[nH]cn1)NC(=O)[C@H](Cc1ccc(O)cc1)NC(=O)[C@H](C)NC(=O)[C@H](CC(=O)O)NC(=O)[C@H](CCC(=O)O)NC(=O)[C@H](Cc1c[nH]cn1)NC(=O)[C@@H](N)Cc1ccc(O)cc1)C(=O)N[C@H](C(=O)N[C@@H](C)C(=O)N[C@@H](Cc1c[nH]cn1)C(=O)N[C@@H](CC(C)C)C(=O)N[C@@H](CC(C)C)C(=O)O)C(C)C |  | mouse, SN model | dose not given |  | serum creatinine | 0.58 ± 0.07 mg/dL
